Assay results of several laboratories.
Each line is one published result; not all experiments were run side by side. ± marks the error that the study gave.

Compound | assay | system | setting | scale | endpoint | value
COc1ncnn2ccc(-c3cnc4nc(C)n(Cc5nnc([C@@H](C)F)o5)c4c3)c12 |  | human patients | oral, dose not given |  | incidence of grade 1 vomiting | 7.1%
O=S(=O)(Nc1ccccc1)c1ccc(NC(=S)Nc2ccccc2)cc1 |  | mouse, male, small intestine | oral, 80 mg/kg daily, 14 days | relative to: body weight | relative organ weight | 2.17%
COc1ccc(CCC2CCCC(CCc3ccc(OC)cc3)N2C[C@@H](O)CO)cc1.Cl (stereo in doubt) |  | rabbit Purkinje fibres | 0.3 µM, cycle length 1 s | relative to: baseline | resting membrane potential change | 1.4 ± 1.3 mV
C=CCNc1c(O)cc2c(O)c1C[C@@H](C)C[C@H](OC)[C@H](O)[C@@H](C)/C=C(\C)[C@H](OC(N)=O)[C@@H](OC)/C=C\C=C(/C)C(=O)N2 | measured: first-degree AV block | patients with unresectable or metastatic GIST, STS or other tumours | intravenous, 90 mg/m^2 |  | treatment-emergent adverse events | 17%
CC(C)c1nc(N(C)S(C)(=O)=O)nc(-c2ccc(F)cc2)c1/C=C/[C@@H](O)C[C@@H](O)CC(=O)O |  | healthy human subjects | oral, dose not given, study CL-0537 safety set |  | incidence of back pain | 0%
CN1CCN(S(=O)(=O)c2cc([N+](=O)[O-])ccc2N(CCOS(C)(=O)=O)CCOS(C)(=O)=O)CC1 |  | naive NOD/SCID mice, pooled blood | intraperitoneal, 18.8 mg/kg, week 4 |  | phosphate | 2.1 mmol/L
C[C@]1(CO)Cc2ncn(-c3ccc(C#N)c(Cl)c3)c2C(=O)O1 |  | healthy Japanese adults, plasma | 3 mg once daily, after first dose, multiple dose |  | Cmax | 213 nM
CCc1ccc(CC/C=C/c2ccc3c(c2)C(=O)CC3)cc1 |  | Sprague-Dawley rat, female, blood | oral, 30 mg/kg/day, 14 days |  | large unstained cells | 1.1%
CN(C)C1(CNC(=O)c2ccc3c(c2)CCN3C(=O)c2ccccc2)CCOCC1 |  | male C57BL/6 mice | intraperitoneal, 50 mg/kg, 30 min |  | unbound plasma concentration | 2650 nM
C[C@@H]1NC(=O)[C@H](CCCCNC(=O)CO/N=C/C(=O)NCCCC[C@@H]2NC(=O)[C@@H](Cc3ccccc3)NC(=O)[C@H](CC(=O)O)NC(=O)CNC(=O)[C@H](CCCNC(=N)N)NC2=O)NC(=O)CNC(=O)[C@@H]2CCCN2C(=O)[C@H](CCCCNC(=O)CO/N=C/C(=O)NCCCC[C@@H]2NC(=O)[C@@H](Cc3ccccc3)NC(=O)[C@H](CC(=O)O)NC(=O)CNC(=O)[C@H](CCCNC(=N)N)NC2=O)NC(=O)[C@H](CCCCNC(=O)[C@H](CCCCN)NC(=O)[C@H](Cc2ccccc2)NC(=O)CNC(=O)CN2CCCNCCNCCCNCC2)NC(=O)[C@H](CCCCNC(=O)CO/N=C/C(=O)NCCCC[C@@H]2NC(=O)[C@@H](Cc3ccccc3)NC(=O)[C@H](CC(=O)O)NC(=O)CNC(=O)[C@H](CCCNC(=N)N)NC2=O)NC(=O)CNC(=O)[C@@H]2CCCN2C(=O)[C@H](CCCCNC(=O)CO/N=C/C(=O)NCCCC[C@@H]2NC(=O)[C@@H](Cc3ccccc3)NC(=O)[C@H](CC(=O)O)NC(=O)CNC(=O)[C@H](CCCNC(=N)N)NC2=O)NC1=O [copper-64 labelled] |  | normal mice, heart | intravenous, 0.74 MBq, 24 h post-injection |  | tissue uptake | 1.1 ± 0.13 %ID/g
C[C@H]1C[C@@H](N2C(=N)N[C@](C)(c3cccc(NC(=O)c4cccc(C#N)c4)c3Cl)CC2=O)CCO1 |  | Han Wistar rat male | oral, 1000 mg/kg, 7 days |  | total Cmax | 12100 ng/mL
CN1CC[C@@H](c2c(O)cc(O)c3c(=O)cc(-c4ccc(C(F)(F)F)cc4Cl)oc23)[C@@H]1CO | measured: Lymphopenia | relapsed or refractory haematological malignancies | oral, dose not given, grade 3 to 4 |  | adverse event incidence | 7.5%
O=C(Nc1ccccc1)C1CCN(C(=O)Oc2cccnc2)CC1 |  | healthy women | oral, 20 mg, 7 days |  | Vascular disorders adverse events | 7.1%
Clc1ccc(-c2ccccc2)cc1 |  | Sprague-Dawley rats, female, serum | inhalation, 23 µg/rat, 1 h after exposure |  | alanine aminotransferase | 94 ± 44 U/L

Repeated from above:
Compound | assay | system | setting | scale | endpoint | value
C[C@H]1C[C@@H](N2C(=N)N[C@](C)(c3cccc(NC(=O)c4cccc(C#N)c4)c3Cl)CC2=O)CCO1 |  | Han Wistar rat male | oral, 1000 mg/kg, 7 days |  | total Cmax | 12100 ng/mL
CN1CC[C@@H](c2c(O)cc(O)c3c(=O)cc(-c4ccc(C(F)(F)F)cc4Cl)oc23)[C@@H]1CO | measured: Lymphopenia | relapsed or refractory haematological malignancies | oral, dose not given, grade 3 to 4 |  | adverse event incidence | 7.5%
